Measurements pooled from the literature.
Numbered parts are unrelated; each lists some results of a single study.

Series 1
Target: Histone acetyltransferase KAT6A, both winged helices, GST fusion (KAT6A, Homo sapiens, UniProt Q92794, residues 1-181)
Method: protein binding microarray
Molecule type: double-stranded DNA, one strand shown
Matrix: in vitro
Concentration: not given
Notes: 8-mer, flanks averaged, mean of 2 arrays, mostly near background
Reference: not given
Reading: higher = stronger binding
Target sequence (chain): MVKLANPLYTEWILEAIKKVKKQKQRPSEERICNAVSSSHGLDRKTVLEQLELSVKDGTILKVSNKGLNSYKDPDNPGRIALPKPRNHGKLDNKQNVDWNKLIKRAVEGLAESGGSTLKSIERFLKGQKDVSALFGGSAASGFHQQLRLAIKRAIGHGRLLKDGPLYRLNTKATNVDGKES
Strand	E-score
CTCTACAC	-0.135
GTTTGAGA	-0.122
AGCAAACT	-0.0337
CGCATGAC	0.122
ATCATAAA	-0.127
CGAATCAG	-0.101
TGGTCACA	-0.0017
AAAATTCA	-0.131
ATCCTATC	-0.0527
ACTGTCAG	0.103
CTCGATCC	-0.132
ACTCGTAG	-0.045
CGAAACGC	0.171
ATGCCAAA	-0.262
CCTTACCA	-0.14

Series 2
Target: RING finger protein unkempt homolog, zinc fingers 1-6, GST-SBP tag (UNK, Homo sapiens, UniProt Q9C0B0, residues 30-357)
Sequence of UniProt Q9C0B0 (30-357, looked up): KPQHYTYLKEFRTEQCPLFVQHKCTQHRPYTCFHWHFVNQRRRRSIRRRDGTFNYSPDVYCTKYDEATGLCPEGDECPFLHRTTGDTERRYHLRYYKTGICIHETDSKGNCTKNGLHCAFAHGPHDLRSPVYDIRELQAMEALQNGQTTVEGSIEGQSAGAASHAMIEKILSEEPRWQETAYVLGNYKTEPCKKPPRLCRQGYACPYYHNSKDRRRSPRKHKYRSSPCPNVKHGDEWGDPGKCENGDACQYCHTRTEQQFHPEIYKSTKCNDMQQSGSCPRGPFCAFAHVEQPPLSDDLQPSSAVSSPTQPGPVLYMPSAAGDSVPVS
Method: RNA Bind-n-Seq
Molecule type: RNA
Matrix: in vitro
Concentration: not given
Notes: RNA with constant flanks, human and mouse sites, ends assumed
Reference: input RNA pool
Reading: higher = stronger binding
Shared flanks, not repeated: GGGAGUUCUACAGUCCGACGAUC … CAACAGAGGAUUGAGCAUCA
Strand	bound/input enrichment
GAAGUACUUAAAGCAGAAAGACCUGAUGUGGACGAGAAACGAUCUGAUCUUCUUAAACUUCAAGGGGAAUUUCAGCUCCGUUUGCGUCAGCUGGAAAAAUCUCUACUACAAGCUCUGAAC	0.112 ratio
UAUGCAGGAACACUGAAAGCAUAGGGUCUAAAUACCUUUGAUAGAUAAAAUGGUUGAUAUUUAAUAAAAUUUGUUGGUACUUAUUGUAUAUUUGGCUUCUUCUAAUAAAGAUUUCCAUAA	1.14 ratio
CCACUUCGAAGCGUCUUGGAGCAAUCCAAGUUAAAGAAAGAAGAUAUUUAUGCAGUGGAGAUAGUUGGUGGUGCCACACGAAUCCCUGCAGUGAAAGAGAAGAUCAGCAAGUUUUUUGGU	0.186 ratio
GAGGAGGAGGGAAAGUCUAGCUCACCAAAGAAAAAGAUCAAGUUGAAGAAAAGUAAAAAUGUAGCAACUGAAGGAACCAGUACCCAGAAAGAAUUUGAAGUGAAAGAUCCUGAGCUGGAG	0.608 ratio
CCAUGUUCUAAAGUCAUCGUUCGGUUCUUAACCGUGAUGAUGAAGCACGGAUACAUUGGUGAAUUUGAGAUCAUUGAUGAUCACAGAGCUGGGAAGAUUGUUGUGAACCUCACAGGAAGG	0.226 ratio
GCUACCUCUGUUGCUGCCCGAGGUCUAGAUGUGAAACAUCUGAUUCUUGUAGUAAAUUAUAGCUGCCCCAACCAUUAUGAGGAUUAUGUACACAGAGCAGGGCGGACUGGAAGAGCAGGA	0.881 ratio
CGACUCGGGGACGGCCUGGGUGCUGCCCUGGGCCCGGGGAACAGAACACACAUCUGGCUUUUUGUUAGAGGUCUUCAUGGAAAGAGUGGUACAUGGUGGGAUGAGCAUCUUUCUGAAGAA	0.268 ratio
CUGAAAGUUCUGGCCACUGCAUUUGACACGACAUUGGGAGGUAGAAAAUUUGAUGAAGUGUUAGUAAAUCACUUCUGUGAAGAAUUUGGGAAGAAAUACAAGCUAGACAUUAAGUCCAAA	0.817 ratio

Series 3
Target: RNA binding protein fox-1 homolog 2, RRM domain, GST-SBP tag (RBFOX2, Homo sapiens, UniProt O43251-10, residues 100-194)
Method: RNA Bind-n-Seq
Molecule type: RNA
Matrix: in vitro
Concentration: 365 nM
Notes: natural RNA segment, single round, ends assumed
Reference: no-protein control
Reading: higher = stronger binding
Shared flanks, not repeated: GGGAGUUCUACAGUCCGACGAUC … UGGAAUUCUCGGGUGCCAA
Target sequence (chain): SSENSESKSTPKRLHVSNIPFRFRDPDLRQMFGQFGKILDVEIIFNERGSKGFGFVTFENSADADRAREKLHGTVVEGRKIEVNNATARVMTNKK
Strand	RBNS enrichment (R)
CUGUGACUCCAUGUACUCAUCCCAAGGUUGUAUCUGGAGCCUGUGGGCUGGCUAGAUGAUAUAGGUGACUGGCACCUAUUAAGAGUAUAUAACAUAAAUACCAUAAAAAG	0.598
ACUUUUUCAGGAUCUGUGUGAAGAAUGGUAAUGACGUAGUUGAAAGGAAAAUGUACUGUUGUGUGUUUCAUUUGUGUGAUUUCGUACCAAAAAAAUGUGUUUGAACUAUA	1.9
UUCUAGUAUUUGGGAAGUGUUUAUGCUUCCUUCCAGGGACCAUCUUAUGAUCAGAGGCAGGAUGUCUGUGAGAUGGUUAGCUAGAGUUAGCAGUGUCCGGGGAGAGUGGC	0.874
GGGCCGGGUUGUAUCAGGAGGAUUCAACCCCGCUAACAUGUGGGGUGCCCUCUGUAGGCCUUCACACAGGGAAGGAAGCCCUACCCUUUCAACUCCUGUUGGAGUGAGAG	0.298
UAAAUUGGGUGUUAGCUUGAGGUGUUUUGGGGGAGUUUGUUGUAAUGGUUUUGCUGUAAACUGUGUUUGGAACUCUGCUGAAGUGUUGCUGAAAAGCAUGGUGCUGGUAA	1.85
GUGCACAUUAGCAAGUGUCCUCAUGCCCGCACCCGGUUUGUGUUGUAGAUCAACUAGCCAACGCCCUCAUUGCUUCAUUGUGUCAAAAAACCGAGAGCUUCACUAAAUGG	0.681
CUUGGCAUGAAGGCAUGUUUUCCUUCUGGGGGUGGUGACAUGCCCUCCAGACGGCCUGCCAUCCAGCCCUCUGGCCUGAGGAAGACCCCCAUAGGCUCCGGACAGGCAGG	4.15
GUUUGUUUGUUUUUUUUAAAUAGUGCCUUUGUCUUAUUUCAAGGGUGUUCAUAAAUGGUAUUUGUACCAUUUUUUUUUUUAAUAAGUUAAAGACAGUCCAGAGCUUUUCA	0.548
GAAUGAACCAGUCAGUGGAAAACUGCUGAGGUGGGACAGCUGGGAGCCAGGGAGCCGAAGCAGUGCUUCAGGGGGUACUGUCACUAAGCCCUCAAGAUACCCUUGUCCCU	0.609
UUAAAUGUCCCAAGCACCUUGUCUCCCUUCCCAAGAACAAACCAUUUCUGUGCACAUCCUUGGAGGCGAGAUGAGCUCCUUGCAGAGGGCCAGAGUAAGUGCAAGUCAUG	0.579
GGGCUUUAACCCUGUACAACGUCACCGAGAGCAACGCCUCCUACUUGGAUCCUGGAGCCAGUCCCUCCUCUCCCUGAGAUCUGCAUCCCUCUGAAAAAGCCUGGCUAAGG	0.56
GUAUUGCUGAAUUUGCAGUUAUGUUGUCGUGUAUAAGAGCUACUUCCAAGUGUGGUUACAAAUGAACCCAUGGAAUGAUGACUUCAUGUUCUUCUCGUGGGUUUGUGCCG	0.224

Other studies, line by line
Molecule	target	assay	system	setting	how to read	quantity	result
PhoQ, residues 284 288 289 292 302 303 TTSMTC	PhoP, residues 12 14 15 18 19 IQFRS (Escherichia coli, UniProt P23836)	Sort-seq, refers to: YFP reporter	E. coli	PhoQ-PhoP variant library, with: 10 µM Mg2+	reference: high Mg2+ state, higher = stronger signaling	fold induction	10.1

Excerpt of the above (series 3):
Strand	RBNS enrichment (R)
UUCUAGUAUUUGGGAAGUGUUUAUGCUUCCUUCCAGGGACCAUCUUAUGAUCAGAGGCAGGAUGUCUGUGAGAUGGUUAGCUAGAGUUAGCAGUGUCCGGGGAGAGUGGC	0.874
GGGCCGGGUUGUAUCAGGAGGAUUCAACCCCGCUAACAUGUGGGGUGCCCUCUGUAGGCCUUCACACAGGGAAGGAAGCCCUACCCUUUCAACUCCUGUUGGAGUGAGAG	0.298
UAAAUUGGGUGUUAGCUUGAGGUGUUUUGGGGGAGUUUGUUGUAAUGGUUUUGCUGUAAACUGUGUUUGGAACUCUGCUGAAGUGUUGCUGAAAAGCAUGGUGCUGGUAA	1.85
GUGCACAUUAGCAAGUGUCCUCAUGCCCGCACCCGGUUUGUGUUGUAGAUCAACUAGCCAACGCCCUCAUUGCUUCAUUGUGUCAAAAAACCGAGAGCUUCACUAAAUGG	0.681
CUUGGCAUGAAGGCAUGUUUUCCUUCUGGGGGUGGUGACAUGCCCUCCAGACGGCCUGCCAUCCAGCCCUCUGGCCUGAGGAAGACCCCCAUAGGCUCCGGACAGGCAGG	4.15
